Results gathered from unrelated publications.
Every numbered part comes from another study and shows a few of its results, in no order. Positions count from the first letter of the parent shown.

Series 1
Target: ABI1, truncated, D143A, DHFR fusion (Arabidopsis thaliana)
Method: DHFR PCA, deep sequencing
Matrix: yeast
Setting: methotrexate growth selection, single substitutions
With: (+)-ABA 17 µM
Reference: wild-type fitted maximum
Reading: higher = stronger binding
Starting sequence: PYL1, truncated, DHFR fusion (Arabidopsis thaliana); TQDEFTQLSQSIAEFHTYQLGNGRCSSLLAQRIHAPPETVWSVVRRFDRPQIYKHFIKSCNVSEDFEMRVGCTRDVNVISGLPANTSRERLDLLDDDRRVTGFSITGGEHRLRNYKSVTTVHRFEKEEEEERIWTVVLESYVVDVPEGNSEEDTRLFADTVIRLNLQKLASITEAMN
| Change | relative binding score [%] |
| --- | --- |
| E14C | 50.9 |
| P50D | -11.4 |
| R90M | 52.2 |
| V145K | 29.6 |
| R99P | -24.2 |
| S59M | 46.2 |
| Q10K | 85.9 |
| I12K | 37.1 |
| N165D | 5.94 |
| L94Y | 72.4 |
| R88L | 80 |
| R24E | 79.2 |
| W41C | 19.4 |
| M68K | 36.6 |
| H16A | -13.7 |
| G108L | 0.41 |
| G23T | 57.6 |
| V62T | 80.2 |
| I57S | 5.26 |
| H110V | 2.97 |
| L93S | 48.6 |
| G102C | 15.4 |
| D97L | 65.6 |
| H55T | 91.9 |

Series 2
Target: CCND2, cyclin fold, Cln2 fusion (human)
Method: yeast growth competition, sequencing
Matrix: yeast
Setting: weak parent motif
Reference: not given
Reading: higher = stronger binding
Starting sequence: CDC25A docking peptide (human); PPHRRRLLFACSP
| Change | normalised enrichment score |
| --- | --- |
| PPHRRRLLFICSP [A10I] | -0.374 |
| PPHRRRALFACSP [L7A] | 0.248 |
| PPHTRRLLFACSP [R4T] | 0.294 |
| PPHRFRLLFACSP [R5F] | -0.223 |
| PPHRRRLLFAHSP [C11H] | 0.323 |
| PPHRRRLLFAVSP [C11V] | 0.0882 |
| PPHRRRLLFACSA [P13A] | 0.135 |
| PPHRRCLLFACSP [R6C] | 0.0488 |
| PPHVRRLLFACSP [R4V] | 0.354 |
| PPHRRRLLFACNP [S12N] | 0.458 |
| PPHRRRLLFACSG [P13G] | 0.42 |
| PPHRRYLLFACSP [R6Y] | -0.216 |
| PPQRRRLLFACSP [H3Q] | -0.123 |
| PPHRRRLLFACSM [P13M] | -0.0741 |
| PPHRRRLLFACSR [P13R] | 0.045 |
| PPHRRSLLFACSP [R6S] | 0.194 |
| PPHRKRLLLACSP [R5K F9L] | 0.0146 |
| PPHRRRLLFACLP [S12L] | 0.281 |
| PPHRRRHLFACSP [L7H] | 0.0602 |
| PPHRMRLLFACSP [R5M] | 0.137 |
| PPHRRRLFFACSP [L8F] | 0.237 |

Series 3
Target: Interferon regulatory factor 7, full length, phosphomimetic (IRF7, Homo sapiens, UniProt Q92985, residues 1-503, S101K/S471D/S472D/S475D/S476D/S477D/S483D/S484D/S487D)
Method: protein-binding microarray
Form: double-stranded DNA, one strand shown
Matrix: in vitro
Tested at: 250 nM
Setting: 60-bp whole probe
With: salmon DNA 0.4 mg/ml
Reference: random background probes
Reading: higher = stronger binding
All sequences stand within: GCCTAGCAC … GTCTTGATTCGCTTGACGCTGCTG
Target sequence (chain): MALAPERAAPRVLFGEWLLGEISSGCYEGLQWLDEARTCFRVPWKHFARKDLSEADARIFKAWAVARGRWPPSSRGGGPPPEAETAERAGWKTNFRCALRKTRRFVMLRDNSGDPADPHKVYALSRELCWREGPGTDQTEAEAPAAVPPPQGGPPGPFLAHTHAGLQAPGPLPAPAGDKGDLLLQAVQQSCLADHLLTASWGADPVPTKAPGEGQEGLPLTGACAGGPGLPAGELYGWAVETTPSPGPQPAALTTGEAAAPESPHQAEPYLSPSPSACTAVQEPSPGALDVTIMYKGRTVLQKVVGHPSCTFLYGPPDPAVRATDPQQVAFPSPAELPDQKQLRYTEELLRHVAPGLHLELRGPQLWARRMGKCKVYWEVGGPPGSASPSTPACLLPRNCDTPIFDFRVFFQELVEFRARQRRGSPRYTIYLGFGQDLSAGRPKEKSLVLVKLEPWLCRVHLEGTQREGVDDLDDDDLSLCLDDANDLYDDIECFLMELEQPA
| Sequence | log fluorescence [z-score] |
| --- | --- |
| TATTTTTACATTATTACCTCGTGCTAG | 1.27 |
| TCACACCTCTAGACTCTAACTGTGCTA | -0.121 |
| TCCCATTCTGAATTCGAATGGTGCTAG | 1.52 |
| TTGCCTCTGCTGCTGGCCGCGTGCTAG | 0.0888 |
| TTAAGACTGCTTTTCCTTTAGTGCTAG | 1.03 |
| TTAGAACTGGGAACTGGATTAGTGCTA | -0.0652 |
| TCACATATAATTTTGTCACTGTGCTAG | 0.382 |
| TTAGGTCTCGGGTATCGGTTAGTGCTA | 2.3 |
| TCATGTGTCAGGTTTACTACTGTGCTA | -0.26 |
| TTAGGACTGCGTATCGGTTAGTGCTAG | 0.00959 |
| GACTATCTCAGTTTCGAGACGTGCTAG | 4.26 |
| TTAGAACTGGGGACTTGATTAGTGCTA | -0.299 |
| GACGGTATCGGTATCGTGACGTGCTAG | 1.4 |
| GACGGTATCGACTATCGGGAAGTGCTA | 0.169 |
| TCACTTCTCGAGTGCCGGACTGTGCTA | 1.07 |
| TCAACCCTCCCTCTGTAACTGTGCTAG | -0.252 |
| GACGGACTGGACTTTCGGTACGTGCTA | -0.306 |
| TTAGGAGTGGGTTTCGGTTAGTGCTAG | 6.38 |
| TCACTTCTGTTTTTGCTACTGTGCTAG | 1.05 |
| GACGAACAGGGGACTGGAGACGTGCTA | -0.754 |
| TCATAACTCAAGATTCCTACTGTGCTA | 0.264 |

Series 4
Target: CREB3L1, bZIP domain (human)
Method: DHFR protein complementation
Matrix: yeast
Setting: single substitutions, most at no-binding floor
Reference: wild-type JUN-FOS pair
Reading: higher = stronger binding
Starting sequence: JUN, bZIP domain (human); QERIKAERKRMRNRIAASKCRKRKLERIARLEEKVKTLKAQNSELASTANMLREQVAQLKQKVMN; partner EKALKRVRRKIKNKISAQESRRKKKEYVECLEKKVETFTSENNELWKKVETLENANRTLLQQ
| Change | binding fitness [natural log] |
| --- | --- |
| L38T | -1.47 |
| S43Q | -1.33 |
| S43N | -1.25 |
| E44L | -1.46 |
| A49V | -1.27 |
| V35S | -1.43 |
| K36P | -1.49 |
| I28W | -1.48 |
| I28P | -1.45 |
| A40H | -1.36 |
| E32K | -1.26 |
| L38S | -1.48 |
| I28L | -1.44 |
| L59R | -1.57 |
| R53P | -1.48 |
| Q41K | -1.53 |
| Q55D | -1.57 |
| A40P | -1.47 |
| K39A | -1.36 |

Series 5
Target: UBE2L6 UBC core domain (UniProt O14933)
Method: yeast two-hybrid
Matrix: yeast
Setting: mostly zero background
Reference: not given
Reading: higher = stronger interaction
B1: RC3H2 RING domain (UniProt Q9HBD1); chain QAAQWTEFLSCPICYNEFDENVHKPISLGCSHTVCKTCLNKLHRKACPFDQTAINTDIDVL
B2: TRIM69 RING domain (UniProt Q86WT6); chain VIQDITMELHCPLCNDWFRDPLMLSCGHNFCEACIQDFWRLQAKETFCPECKMLCQYNNCTF
B3: PHF21A RING domain (UniProt Q96BD5); chain SPTSTDGDIHEDFCSVCRKSGQLLMCDTCSRVYHLDCLDPPLKTIPKGMWICPRCQDQMLKKEEAIPW
B4: MID1 RING domain (UniProt O15344); chain METLESELTCPICLELFEDPLLLPCAHSLCFNCAHRILVSHCATNESVESITAFQCPTCRHVITLSQRGL
B5: CUL9 RING domain (UniProt Q8IWT3); chain AQAVPVRPDHCPVCVSPLGCDDDLPSLCCMHYCCKSCWNEYLTTRIEQNLVLNCTCPIADCPAQPTGAFIR
B6: TRIM63 RING domain (UniProt Q969Q1); chain PMENLEKQLICPICLEMFTKPVVILPCQHNLCRKCANDIFQAANPYWTSRGSSVSMSGGRFRCPTCRHEVIMDRHGV
B7: TRIM8 RING domain (UniProt Q9BZR9); chain WKNCFEEELICPICLHVFVEPVQLPCKHNFCRGCIGEAWAKDSGLVRCPECNQAYNQKPGLE
B8: RNF170 RING domain (UniProt Q96K19); chain TRQQFYTDMYCPICLHQASFPVETNCGHLFCGACIIAYWRYGSWLGAISCPICRQTVTLLLTVF
B9: UHRF2 RING domain (UniProt Q96PU4); chain CGGDPEKKCHSCSCRVCGGKHEPNMQLLCDECNVAYHIYCLNPPLDKVPEEEYWYCPSCKTDSSEVVKAGER
B10: ZNF598 RING domain (UniProt Q86UK7); chain AAAPERGGGSCVLCCGDLEATALGRCDHPVCYRCSTKMRVLCEQRYCAVCREELRQVVFGK
Construct (chain): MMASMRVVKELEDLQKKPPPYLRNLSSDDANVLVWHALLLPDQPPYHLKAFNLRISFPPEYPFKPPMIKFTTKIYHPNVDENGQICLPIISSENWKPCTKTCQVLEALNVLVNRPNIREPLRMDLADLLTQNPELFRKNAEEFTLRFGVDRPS
| Molecule | lacZ reporter activity |
| --- | --- |
| B1 (RC3H2 RING domain) | 0 |
| YWAMDSTFELCKICAESNKDVKIEPCGHLLCSCCLAAWQHSDSQTCPFCRCEIKGWEAVS (CBLC RING domain (UniProt Q9ULV8)) | 0 |
| B2 (TRIM69 RING domain) | 0 |
| B3 (PHF21A RING domain) | 0 |
| EDEVSDNSAECVVCLSDVRDTLILPCRHLCLCNTCADTLRYQANNCPICRLPFRALLQIR (RNF157 RING domain (UniProt Q96PX1)) | 0 |
| KTLSRFGIQPCSICLGDAKDPVCLPCDHVHCLRCLRAWFASEQMICPYCLTALPDEFSPA (RNF213 RING domain (UniProt Q63HN8)) | 0 |
| FASPPDSNFVCSVCHGVLKRPARLPCSHIFCKKCILRWLARQKTCPCCRKEVKRKKVVH (RNF151 RING domain (UniProt Q2KHN1)) | 0 |
| B4 (MID1 RING domain) | 0 |
| B5 (CUL9 RING domain) | 0 |
| B6 (TRIM63 RING domain) | 0 |
| B7 (TRIM8 RING domain) | 0 |
| B8 (RNF170 RING domain) | 0 |
| B9 (UHRF2 RING domain) | 0 |
| RLTMMWEEVTCPICLDPFVEPVSIECGHSFCQECISQVGKGGGSVCPVCRQRFLLKNLRP (TRIM21 RING domain (UniProt P19474)) | 0 |
| B10 (ZNF598 RING domain) | 0 |
| DAIPSLSECQCGICMEILVEPVTLPCNHTLCKPCFQSTVEKASLCCPFCRRRVSSWTRYH (RNF168 RING domain (UniProt Q8IYW5)) | 0 |

Excerpt of the above (series 5):
| Molecule | lacZ reporter activity |
| --- | --- |
| B8 (RNF170 RING domain) | 0 |
| B3 (PHF21A RING domain) | 0 |
| RLTMMWEEVTCPICLDPFVEPVSIECGHSFCQECISQVGKGGGSVCPVCRQRFLLKNLRP (TRIM21 RING domain (UniProt P19474)) | 0 |
| B5 (CUL9 RING domain) | 0 |
| B6 (TRIM63 RING domain) | 0 |
| B1 (RC3H2 RING domain) | 0 |
| B7 (TRIM8 RING domain) | 0 |
| EDEVSDNSAECVVCLSDVRDTLILPCRHLCLCNTCADTLRYQANNCPICRLPFRALLQIR (RNF157 RING domain (UniProt Q96PX1)) | 0 |
| B2 (TRIM69 RING domain) | 0 |
| FASPPDSNFVCSVCHGVLKRPARLPCSHIFCKKCILRWLARQKTCPCCRKEVKRKKVVH (RNF151 RING domain (UniProt Q2KHN1)) | 0 |
| DAIPSLSECQCGICMEILVEPVTLPCNHTLCKPCFQSTVEKASLCCPFCRRRVSSWTRYH (RNF168 RING domain (UniProt Q8IYW5)) | 0 |
| B9 (UHRF2 RING domain) | 0 |
| YWAMDSTFELCKICAESNKDVKIEPCGHLLCSCCLAAWQHSDSQTCPFCRCEIKGWEAVS (CBLC RING domain (UniProt Q9ULV8)) | 0 |
| KTLSRFGIQPCSICLGDAKDPVCLPCDHVHCLRCLRAWFASEQMICPYCLTALPDEFSPA (RNF213 RING domain (UniProt Q63HN8)) | 0 |
| B10 (ZNF598 RING domain) | 0 |
